Results from different studies.
A part holds a random share of what one study measured. Values joined by “and” are separate records of one study, mostly repeats; a detail may differ.
Sequence of UniProt Q92630 (whole entry, looked up): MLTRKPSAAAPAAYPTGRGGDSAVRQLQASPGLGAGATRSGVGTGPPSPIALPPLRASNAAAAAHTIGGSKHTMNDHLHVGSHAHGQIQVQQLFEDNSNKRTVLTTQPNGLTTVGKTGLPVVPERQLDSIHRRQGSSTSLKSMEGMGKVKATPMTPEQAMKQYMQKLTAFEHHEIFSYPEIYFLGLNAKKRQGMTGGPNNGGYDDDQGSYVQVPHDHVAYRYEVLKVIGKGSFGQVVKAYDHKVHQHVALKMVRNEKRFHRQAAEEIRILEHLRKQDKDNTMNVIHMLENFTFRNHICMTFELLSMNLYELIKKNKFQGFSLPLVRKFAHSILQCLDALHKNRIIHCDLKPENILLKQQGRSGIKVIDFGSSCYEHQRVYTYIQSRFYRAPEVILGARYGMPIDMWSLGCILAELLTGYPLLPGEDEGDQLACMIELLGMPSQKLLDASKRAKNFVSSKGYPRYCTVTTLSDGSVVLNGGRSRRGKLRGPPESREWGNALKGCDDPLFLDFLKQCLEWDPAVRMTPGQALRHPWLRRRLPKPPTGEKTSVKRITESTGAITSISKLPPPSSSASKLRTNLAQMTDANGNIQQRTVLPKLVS
Sequence of UniProt Q5XXA6 (whole entry, unmodified, looked up): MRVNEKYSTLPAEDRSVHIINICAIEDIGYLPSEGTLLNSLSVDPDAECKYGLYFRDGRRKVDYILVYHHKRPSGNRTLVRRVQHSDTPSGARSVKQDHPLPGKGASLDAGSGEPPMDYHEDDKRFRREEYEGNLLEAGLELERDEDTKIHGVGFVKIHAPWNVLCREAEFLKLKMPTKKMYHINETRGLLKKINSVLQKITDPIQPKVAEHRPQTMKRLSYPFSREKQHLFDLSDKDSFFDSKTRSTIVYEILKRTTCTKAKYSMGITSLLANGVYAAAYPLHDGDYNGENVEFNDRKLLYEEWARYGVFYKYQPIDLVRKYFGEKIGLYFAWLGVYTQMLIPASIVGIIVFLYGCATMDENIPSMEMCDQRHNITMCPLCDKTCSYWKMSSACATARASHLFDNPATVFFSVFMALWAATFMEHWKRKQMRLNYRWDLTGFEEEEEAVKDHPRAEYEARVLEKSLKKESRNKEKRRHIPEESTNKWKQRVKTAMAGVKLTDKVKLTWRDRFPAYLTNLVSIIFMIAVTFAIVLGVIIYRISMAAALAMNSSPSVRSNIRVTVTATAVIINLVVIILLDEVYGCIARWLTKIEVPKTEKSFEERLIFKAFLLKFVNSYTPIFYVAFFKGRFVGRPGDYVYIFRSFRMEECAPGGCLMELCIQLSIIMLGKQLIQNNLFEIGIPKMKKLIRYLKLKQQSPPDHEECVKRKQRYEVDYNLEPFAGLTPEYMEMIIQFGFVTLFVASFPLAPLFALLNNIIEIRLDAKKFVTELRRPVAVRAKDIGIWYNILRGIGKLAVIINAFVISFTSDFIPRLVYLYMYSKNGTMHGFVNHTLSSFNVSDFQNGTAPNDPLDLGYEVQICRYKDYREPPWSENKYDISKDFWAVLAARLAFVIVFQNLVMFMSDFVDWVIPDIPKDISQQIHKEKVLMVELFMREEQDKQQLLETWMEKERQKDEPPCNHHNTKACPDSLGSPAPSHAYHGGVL

Block 1
Cell line: mouse MPNST tumor cells
Method: high-content immunofluorescence imaging
Refers to: nuclear SOX9
Tested at: 10 µM
Time: 12 h
Setting: mean of 2 replicates
Relative to: DMSO control
Direction: higher = more nuclear SOX9
Quantity: nuclear SOX9 intensity
CCC(CC)Nc1cc(C)nc(Oc2c(C)cc(C)cc2C)c1C: 119 % of DMSO
CC(C)[N+](C)(CCOC(=O)C1c2ccccc2Oc2ccccc21)C(C)C: 98.1 % of DMSO
COc1ccccc1N1CCN(CCCNc2cc(=O)n(C)c(=O)n2C)CC1: 107 % of DMSO
CC1=C(C(=O)O)N2C(=O)[C@@H](NC(=O)[C@H](N)c3ccc(O)cc3)[C@H]2SC1: 102 % of DMSO
O=C(O)c1ccccc1Nc1ccc(CCc2ccc(Cl)c(Cl)c2)cc1: 102 % of DMSO
Clc1ccc(COC(Cn2ccnc2)c2ccc(Cl)cc2Cl)c(Cl)c1 (stereo not drawn): 159 % of DMSO and 105 % of DMSO
CC(=O)Nc1c(I)c(C(=O)N[C@H]2C(O)O[C@H](CO)[C@@H](O)[C@@H]2O)c(I)c(N(C)C(C)=O)c1I (stereo partly drawn): 112 % of DMSO
CC(C)COCC(CN(Cc1ccccc1)c1ccccc1)N1CCCC1 (stereo not drawn): 205 % of DMSO

Block 2
Target: Beta-1 adrenergic receptor (ADRB1, Homo sapiens, UniProt P08588)
Sequence of UniProt P08588 (whole entry, looked up): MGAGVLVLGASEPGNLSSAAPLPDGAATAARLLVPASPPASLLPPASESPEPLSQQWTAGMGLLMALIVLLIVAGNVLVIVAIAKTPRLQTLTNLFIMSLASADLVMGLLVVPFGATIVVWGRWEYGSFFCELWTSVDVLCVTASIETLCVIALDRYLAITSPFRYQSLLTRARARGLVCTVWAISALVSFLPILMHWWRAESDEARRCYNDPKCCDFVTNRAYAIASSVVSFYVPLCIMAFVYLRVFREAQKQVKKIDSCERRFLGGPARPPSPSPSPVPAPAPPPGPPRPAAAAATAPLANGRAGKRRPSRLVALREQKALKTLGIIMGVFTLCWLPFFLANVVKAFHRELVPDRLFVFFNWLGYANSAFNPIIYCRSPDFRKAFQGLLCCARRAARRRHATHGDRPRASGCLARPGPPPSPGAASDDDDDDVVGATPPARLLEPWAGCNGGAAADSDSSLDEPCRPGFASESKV
Action: antagonist
Quantity: IC50
O=C(Nc1ccccc1)Nc1ccc([C@@H](O)[C@H]2COCC(=O)N2Cc2ccc(F)cc2)cc1: ≥ 100 µM
O=C(C1CCOCC1)N1CCCn2nc(C(O)c3ccccc3)cc2C1 (stereo not drawn): ≥ 100 µM
CCOC(=O)COc1ccc2c(c1)C[C@@H](NC[C@H](O)c1cccc(Cl)c1)CC2: ≥ 100 µM
COc1ccc(CN2CCOc3nc(-c4cn[nH]c4)ncc3C2=O)cc1: ≥ 100 µM
COc1ccccc1N1CCN(CCC(=O)Nc2ccc3c(c2)OCCO3)CC1: ≥ 100 µM
Cc1cc(F)ccc1-c1n[nH]c2ncc(-c3ccsc3)nc12: ≥ 100 µM
O=C1NCc2ccccc2CC12CCN(Cc1ccc3ccccc3n1)CC2: ≥ 100 µM
Cc1ccc(C(=O)Nc2ccc(Oc3cc4cnn(C)c4cc3-c3cn[nH]c3)c(F)c2)c(=O)n1-c1ccc(F)cc1: ≥ 100 µM

Further values, each from its own experiment
Cn1cncc1[C@](O)(COc1ccc(C#N)cc1-c1ccc(OC(F)(F)F)cc1)c1ccc(C#N)cc1
remaining binding (DYRK2 (Homo sapiens, UniProt Q92630); cell-free assay, competition with immobilised ligand; 1 µM): 52%

O=C1CCC(N2Cc3cc(C4CCN(Cc5ccccc5)CC4)ccc3C2=O)C(=O)N1 (stereo not drawn)
clearance (Sprague Dawley rat, male, plasma; intravenous, 1.0 mg/kg): 49.8 mL/min/kg

C=CCc1ccc(O)c(-c2ccc(O)c(CC=C)c2)c1
remaining current (Anoctamin-1 (ANO1, Homo sapiens, UniProt Q5XXA6, del476-501); chloride current, inhibitor, whole-cell voltage clamp; 3 µM, wild type, with: 300 nM Ca2+; relative to: maximum): ~70%

COc1ccc(-c2c(Nc3ccccn3)[nH]c3c(C4=CCCCC4)c(-c4ccccc4)nn3c2=O)cc1
Tmax (human, plasma; oral, 100 mg once daily): 24 h

WQLTSIWPI
binding (HLA class I histocompatibility antigen, C alpha chain, allele C*04:01 (Homo sapiens, UniProt P10321); peptide-MHC binding; peptide; concentration not given): inactive

Repeated from above (block 2):
CCOC(=O)COc1ccc2c(c1)C[C@@H](NC[C@H](O)c1cccc(Cl)c1)CC2: ≥ 100 µM
COc1ccc(CN2CCOc3nc(-c4cn[nH]c4)ncc3C2=O)cc1: ≥ 100 µM
COc1ccccc1N1CCN(CCC(=O)Nc2ccc3c(c2)OCCO3)CC1: ≥ 100 µM
